Published values pooled from the literature.
Every numbered part comes from another study and shows a few of its results, in no order.
UniProt Q9Y3S1, sequence (whole entry, looked up): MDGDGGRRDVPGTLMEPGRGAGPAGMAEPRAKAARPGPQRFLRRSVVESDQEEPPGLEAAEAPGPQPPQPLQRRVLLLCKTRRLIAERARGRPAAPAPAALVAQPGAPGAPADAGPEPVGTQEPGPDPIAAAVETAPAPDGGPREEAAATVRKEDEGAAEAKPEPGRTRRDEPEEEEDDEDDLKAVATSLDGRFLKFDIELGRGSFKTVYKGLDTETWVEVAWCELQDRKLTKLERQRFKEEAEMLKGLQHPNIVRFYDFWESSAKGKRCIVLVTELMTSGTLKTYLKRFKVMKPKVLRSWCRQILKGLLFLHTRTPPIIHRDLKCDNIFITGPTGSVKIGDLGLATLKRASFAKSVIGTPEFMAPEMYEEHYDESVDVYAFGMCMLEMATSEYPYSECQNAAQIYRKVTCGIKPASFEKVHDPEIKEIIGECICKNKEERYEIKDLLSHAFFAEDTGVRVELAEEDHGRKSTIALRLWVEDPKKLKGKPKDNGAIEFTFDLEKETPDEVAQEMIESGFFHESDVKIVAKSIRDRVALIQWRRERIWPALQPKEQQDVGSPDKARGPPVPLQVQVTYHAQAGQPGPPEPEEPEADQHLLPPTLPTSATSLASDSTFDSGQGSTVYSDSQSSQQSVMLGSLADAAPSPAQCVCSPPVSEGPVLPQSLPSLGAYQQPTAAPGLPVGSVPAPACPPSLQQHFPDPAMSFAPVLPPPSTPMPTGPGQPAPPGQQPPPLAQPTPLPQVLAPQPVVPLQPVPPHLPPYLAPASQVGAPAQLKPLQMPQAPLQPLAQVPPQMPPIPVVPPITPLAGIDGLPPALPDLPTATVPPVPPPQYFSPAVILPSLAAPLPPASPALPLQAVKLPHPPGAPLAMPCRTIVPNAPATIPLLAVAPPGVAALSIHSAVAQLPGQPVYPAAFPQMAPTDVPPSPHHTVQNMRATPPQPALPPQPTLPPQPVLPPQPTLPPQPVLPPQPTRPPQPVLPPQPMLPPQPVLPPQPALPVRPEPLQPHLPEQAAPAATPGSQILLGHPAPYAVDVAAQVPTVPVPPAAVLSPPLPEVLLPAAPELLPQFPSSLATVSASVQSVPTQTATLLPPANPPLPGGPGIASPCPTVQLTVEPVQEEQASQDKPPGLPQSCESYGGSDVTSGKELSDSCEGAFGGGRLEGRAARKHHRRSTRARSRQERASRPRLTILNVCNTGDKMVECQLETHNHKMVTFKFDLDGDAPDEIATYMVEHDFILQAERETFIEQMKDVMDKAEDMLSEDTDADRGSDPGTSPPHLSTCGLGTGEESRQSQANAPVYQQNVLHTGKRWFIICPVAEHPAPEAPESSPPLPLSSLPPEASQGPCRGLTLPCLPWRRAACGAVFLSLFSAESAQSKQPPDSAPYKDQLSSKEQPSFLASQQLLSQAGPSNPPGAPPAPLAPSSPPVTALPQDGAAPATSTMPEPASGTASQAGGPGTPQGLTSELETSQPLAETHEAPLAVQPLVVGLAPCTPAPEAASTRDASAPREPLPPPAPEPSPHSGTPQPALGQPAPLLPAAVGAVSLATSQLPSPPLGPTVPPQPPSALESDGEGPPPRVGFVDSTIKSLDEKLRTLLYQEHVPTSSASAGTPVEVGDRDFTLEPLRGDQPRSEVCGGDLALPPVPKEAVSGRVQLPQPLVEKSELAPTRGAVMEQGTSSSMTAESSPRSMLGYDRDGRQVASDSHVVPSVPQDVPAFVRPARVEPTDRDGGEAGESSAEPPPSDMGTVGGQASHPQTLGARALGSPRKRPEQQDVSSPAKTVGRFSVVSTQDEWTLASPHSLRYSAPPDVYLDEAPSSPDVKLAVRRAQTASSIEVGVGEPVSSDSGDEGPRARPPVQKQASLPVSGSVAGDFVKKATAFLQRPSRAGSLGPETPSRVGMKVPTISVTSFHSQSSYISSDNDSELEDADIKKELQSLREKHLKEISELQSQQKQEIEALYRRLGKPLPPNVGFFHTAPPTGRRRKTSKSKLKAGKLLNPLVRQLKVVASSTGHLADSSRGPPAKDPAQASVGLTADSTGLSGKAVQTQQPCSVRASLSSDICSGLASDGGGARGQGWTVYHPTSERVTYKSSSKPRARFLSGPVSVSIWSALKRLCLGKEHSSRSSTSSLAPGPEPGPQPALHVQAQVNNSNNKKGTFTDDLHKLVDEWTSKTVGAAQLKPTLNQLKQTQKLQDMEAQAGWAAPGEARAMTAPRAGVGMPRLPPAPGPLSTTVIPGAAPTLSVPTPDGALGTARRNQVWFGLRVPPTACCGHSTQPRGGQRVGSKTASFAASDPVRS
UniProt Q9NWZ3, sequence (whole entry, looked up): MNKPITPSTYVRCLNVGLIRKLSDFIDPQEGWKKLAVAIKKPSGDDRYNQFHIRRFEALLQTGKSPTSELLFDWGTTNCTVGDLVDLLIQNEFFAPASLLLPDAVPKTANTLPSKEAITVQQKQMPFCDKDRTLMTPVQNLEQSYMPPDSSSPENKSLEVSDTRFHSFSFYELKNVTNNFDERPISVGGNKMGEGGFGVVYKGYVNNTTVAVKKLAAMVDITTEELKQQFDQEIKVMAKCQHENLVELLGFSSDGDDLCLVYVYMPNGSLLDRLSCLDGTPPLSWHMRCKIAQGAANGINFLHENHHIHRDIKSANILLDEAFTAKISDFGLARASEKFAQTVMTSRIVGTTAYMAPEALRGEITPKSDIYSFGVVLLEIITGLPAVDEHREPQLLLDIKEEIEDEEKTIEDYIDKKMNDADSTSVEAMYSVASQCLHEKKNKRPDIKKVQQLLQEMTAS

Set 1 — technique: RNA Bind-n-Seq; form: RNA; medium: in vitro; concentration: 100 nM; reference: input RNA pool; reading: higher = stronger binding; measurement: bound/input enrichment
Target: RING finger protein unkempt homolog, zinc fingers 1-6, SBP tag (UNK, Homo sapiens, UniProt Q9C0B0, residues 30-357)
UniProt Q9C0B0, sequence (30-357, looked up): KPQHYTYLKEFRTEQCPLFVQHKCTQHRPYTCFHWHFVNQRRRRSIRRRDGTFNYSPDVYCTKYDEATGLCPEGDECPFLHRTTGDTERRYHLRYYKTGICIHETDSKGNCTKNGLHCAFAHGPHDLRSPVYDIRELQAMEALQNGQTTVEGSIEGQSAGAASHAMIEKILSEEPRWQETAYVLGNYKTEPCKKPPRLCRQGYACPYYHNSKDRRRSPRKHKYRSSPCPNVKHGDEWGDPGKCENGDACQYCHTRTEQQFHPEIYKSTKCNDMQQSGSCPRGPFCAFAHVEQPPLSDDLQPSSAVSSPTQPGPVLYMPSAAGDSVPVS
Setting: RNA with constant flanks, vertebrate orthologous sites, ends assumed
Shared flanks, not repeated: GGGAGUUCUACAGUCCGACGAUC … CAACAGAGGAUUGAGCAUCA
GCACAUGCCGCUAUCACCAAAAGCAAACUGCCACUUUUCAAAUUUCAUUCAGAGCCGUUUUAGUGUUUCCUAUUCCCUACCCUUCCCACUGCUUUCAAUGAUGAAAUAUCCUAAGUUCUC: 2.57 ratio
UGAGAACUCUUGCAGUCUUAGAUGUUAUACAAAAAUAUGUAUCUGAAUUGUAAGAGUUGUUAGCACAGGUGUUUUUUUGUUUGUUUUUUUUUUAAGCACUUGUUUUGGGUACAAGGCAUU: 0.257 ratio
CAUGUAGUUCGUUUUUAAUUUCAAGCAAAUCUUAUUGUACUUGAAUGUGCCCUGUUUUGUUAGCACACCUAGACUUGCUGUAACUGUACUCAUGUCCCAGUAUGUACCUUCUUUCUAUGA: 1.17 ratio
UUCAGGCACAACUGACUGGUUCACAGCAUUCCUUACAUAGCUAUCUAUCAAAUGCAAGUGUAGUUAAUUUUCAGGAAACAAGCAGGCAGUCAUCUUUAUCCUGUAGCCCGAUCGGAGAUU: 1.4 ratio
ACCCCGAUUUUAGAUGUGAUACCUAGGCUUCAUUCCAGUUUGUUUUUGUCUUUUCUUGUUUAGAUACCAAUCUUUUAAAUUCUUGCAUUUUAGUAAGAAAGCUACCUUUUUAUGGAUGUU: 1.33 ratio
GAAGCUCAGCACUUAACAACUGACACCCCAAAAGACGUAGAAAAGGUUUACAAAAUAAUCUAGUUUACGAAGAAAUCUUGUGCUAGAAUACUUUUUAAAGUAUUUUUGAAUACCAUUAAA: 0.248 ratio
AUCUCUCAUUUUGUAUGUCCAAAAAAGGUUUUGAAUUUUUAAACAAUUGCUAGUUUUGAUUAGCUCUGCCCUCAUGAAGUAUUAUUAUAAUCACCACAAACAGAUAUCUGUCUGAAUUAC: 0.679 ratio
UAAUUCCAGUCUCUUUUGCCAAGGGCUGAUAUGAAAUAUGAUUUUUUUAUUGCUUCUGUAUUACUGUUAACAUUGGGUGGGUGAUACAAAAUACAAAGUGGCAGAGUUCUUCUGUUCUUC: 0.795 ratio

Set 2 — technique: RNAcompete; form: RNA; medium: in vitro; concentration: 20 nM; setting: 7-mer, probes averaged, single round; reference: mean of 7-mers; reading: higher = stronger binding; measurement: 7-mer Z-score
Target: PABPC1L2, full length, GST fusion (mouse, UniProt A0ABA7IW68)
Residues (chain): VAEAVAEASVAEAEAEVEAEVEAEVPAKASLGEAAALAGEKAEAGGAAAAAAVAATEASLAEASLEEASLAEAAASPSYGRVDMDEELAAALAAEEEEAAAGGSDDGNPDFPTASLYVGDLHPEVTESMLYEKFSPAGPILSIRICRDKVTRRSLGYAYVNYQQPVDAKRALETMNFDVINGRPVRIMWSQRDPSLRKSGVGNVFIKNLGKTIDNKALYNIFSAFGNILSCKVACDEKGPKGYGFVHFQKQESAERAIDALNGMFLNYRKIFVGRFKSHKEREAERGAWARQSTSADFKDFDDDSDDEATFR
CCCAUUC: -0.336
AUGGUAA: 0.108
UACCGAU: -0.237
UGAAAGC: -0.0536
AGGCAGA: 0.365
CCUUAGU: -0.257
UCGGAAC: -0.0355
ACUUAUC: -0.173

Mixed results
Cc1cccc(-c2[nH]c(C(C)(C)C)nc2-c2ccc3c(c2)OCO3)n1 — remaining activity (WNK2 (Homo sapiens, UniProt Q9Y3S1); enzyme activity, inhibitor; 0.5 µM; reference: control): 105%
O=C(Nc1cccnn1)N1CC(C/C=C/c2cncc(Oc3ccc(C(F)(F)F)cn3)n2)C1 — remaining binding (IRAK4 (Homo sapiens, UniProt Q9NWZ3); cell-free assay, competition with immobilised ligand; 1 µM): 100%

Repeated from above (set 2):
AGGCAGA: 0.365
CCUUAGU: -0.257
